Published values from different studies.
Each line is one published result; not all experiments were run side by side. Numbers after ± are the reported error.
HLA class I histocompatibility antigen, A alpha chain allele A*02:01: HLA class I histocompatibility antigen, A alpha chain, allele A*02:01 (Homo sapiens, UniProt P04439)
SH2D3C SH2 domain: SH2 domain-containing protein 3C, SH2 domain (SH2D3C, Homo sapiens, UniProt Q8N5H7)
ampC: Beta-lactamase (ampC, Escherichia coli K-12, UniProt P00811)
HLA class I histocompatibility antigen, A alpha chain allele A*24:02: HLA class I histocompatibility antigen, A alpha chain, allele A*24:02 (Homo sapiens, UniProt P04439)

`CC[C@H](C)[C@H](NC(=O)[C@@H](N)CCSC)C(=O)N[C@@H](Cc1ccccc1)C(=O)N[C@@H](CC(=O)O)C(=O)N[C@@H](CCCCN)C(=O)N1CCC[C@H]1C(=O)N[C@H](C(=O)N[C@@H](Cc1ccc(O)cc1)C(=O)N[C@@H](Cc1ccccc1)C(=O)O)C(C)C` gave an IC50 of 398 nM (HLA class I histocompatibility antigen, A alpha chain allele A*02:01; binding).
For `COc1cc(Nc2ncc(F)c(Nc3ccc4c(n3)NC(=O)C(C)(C)O4)n2)cc(OC)c1OC`, the IC50 was > 10000 nM (Collagenase 3 (MMP13, Homo sapiens, UniProt P45452); metalloproteinase-13).
For `CSCC[C@H](NC(=O)CNC(=O)[C@H](Cc1ccccc1)NC(=O)[C@H](CC(=O)O)NC(=O)CNC(=O)c1ccc2c(c1)C(=O)OC21c2ccc(N(C)C)cc2Oc2cc(N(C)C)ccc21)C(=O)N[C@@H](CO)C(=O)N[C@@H](CCCNC(=N)N)C(=O)N[C@@H](CC(=O)O)C(=O)N[C@H](C(=O)N[C@@H](Cc1ccc(OP(=O)(O)O)cc1)C(=O)N[C@@H](CO)C(=O)N[C@H](C(=O)N[C@@H](CC(=O)O)C(=O)N[C@@H](Cc1ccc(O)cc1)C(=O)N[C@@H](Cc1ccc(O)cc1)C(=O)N[C@@H](CCCNC(=N)N)C(=O)N[C@H](C(=O)N[C@@H](CC(=O)O)C(=O)O)C(C)C)[C@@H](C)O)C(C)C`, the Kd was 1400 nM (SH2D3C SH2 domain; binding).
With `O=S(=O)(Nc1ccccc1OCc1cscn1)c1cccc(Cl)c1O` the Ki was 26700 nM (ampC).
With `CC[C@@H](C)[C@H]1NC(=O)[C@@H](CCC(=O)O)NC(=O)[C@@H](CO)NC(=O)[C@@H](C)NC(=O)[C@@H](Cc2ccccc2)NC(=O)[C@@H](CC(=O)O)NC(=O)[C@H](NC(=O)[C@@H](CCCNC(=N)N)NC(=O)[C@H](NC(=O)[C@@H](C)NC(=O)[C@@H](CC(C)C)NC(=O)[C@@H](CO)NC(=O)[C@H](NC(=O)[C@@H](CCC(N)=O)NC(=O)[C@@H](CO)NC(=O)[C@H](NC(=O)[C@@H](C)NC(=O)[C@@H](Cc2ccc(O)cc2)NC(=O)[C@H]2CCCN2C(=O)[C@H](N)CCCNC(=N)N)C(C)C)[C@H](C)CC)C(C)C)CSSC[C@H](C(=O)N[C@H](CCC(N)=O)C(=O)N[C@H](CCCNC(=N)N)C(=O)N[C@H](CCC(N)=O)C(N)=O)NC(=O)[C@@H](Cc2ccc(O)cc2)NC(=O)[C@@H](CO)NC(=O)[C@@H](CCC(=O)O)NC(=O)[C@@H](CCCCN)NC(=O)[C@@H](CC(C)C)NC(=O)[C@@H](CCCCN)NC(=O)[C@@H](CCCCN)NC(=O)[C@@H](CC(C)C)NC(=O)[C@@H](Cc2c[nH]cn2)NC(=O)[C@@H]([C@H](C)O)NC(=O)[C@@H]([C@H](C)O)NC(=O)[C@@H](CCSC)NC(=O)[C@@H](CCCCN)NC(=O)[C@@H](C(C)C)NC(=O)[C@@H](CCCCN)NC(=O)[C@@H](Cc2ccccc2)NC(=O)[C@@H](Cc2c[nH]cn2)NC1=O` the IC50 was 36900 nM (Programmed cell death protein 1, with PD-L1 (PDCD1, Homo sapiens, UniProt Q15116); PD-1/PD-L1 binding, inhibitor, HTRF; 2 h, room temperature).
For `O=C(CNS(=O)(=O)c1cccc(Cl)c1O)N1CCOc2ccccc21`, the Ki was 190000 nM (ampC).
`CSCC[C@H](NC(=O)[C@H](CO)NC(=O)[C@H](CC(C)C)NC(=O)[C@H](CO)NC(=O)[C@H](Cc1c[nH]cn1)NC(=O)CNC(=O)[C@H](Cc1ccc(O)cc1)NC(=O)[C@H](CC(C)C)NC(=O)[C@@H](N)CCCNC(=N)N)C(=O)O` gave an IC50 of 159 nM (HLA class I histocompatibility antigen, A alpha chain allele A*02:01; binding).
`NC(N)=Nc1ccc2[nH]c3c(c2c1)C[C@@]1(O)[C@H]2Cc4ccc(O)c5c4[C@@]1(CCN2CC1CC1)[C@H]3O5` gave a Ki of 2.8 nM (OPRK1 (Homo sapiens, UniProt P41145, D138A)).
With `CC[C@H](C)[C@H](NC(=O)c1ccc2c(c1)C(=O)OC21c2ccc(N(C)C)cc2Oc2cc(N(C)C)ccc21)C(=O)N[C@@H](CCC(=O)O)C(=O)N[C@@H](CO)C(=O)N[C@@H](CO)C(=O)N[C@@H](CC(N)=O)C(=O)N[C@@H](Cc1ccc(O)cc1)C(=O)N[C@@H](CCSC)C(=O)N[C@@H](C)C(=O)N1CCC[C@H]1C(=O)N[C@@H](Cc1ccc(OP(=O)(O)O)cc1)C(=O)N[C@@H](CC(=O)O)C(=O)N[C@@H](CC(N)=O)C(=O)N[C@@H](Cc1ccc(O)cc1)C(=O)N[C@H](C(=O)N1CCC[C@H]1C(=O)N[C@@H](CO)C(=O)N[C@@H](C)C(=O)N[C@@H](CC(=O)O)C(=O)O)C(C)C` the Kd was 1610 nM (SH2D3C SH2 domain; binding).
For `CC[C@H](C)[C@H](NC(=O)[C@@H](N)CCCCN)C(=O)N[C@@H](Cc1ccccc1)C(=O)N1CCC[C@H]1C(=O)N[C@H](C(=O)N1CCC[C@H]1C(=O)N[C@@H](CC(C)C)C(=O)N[C@@H](CCCCN)C(=O)N[C@@H](Cc1ccccc1)C(=O)O)C(C)C`, the IC50 was 102 nM (HLA class I histocompatibility antigen, A alpha chain allele A*24:02; binding).
With `CSCC[C@H](NC(=O)[C@H](CC(C)C)NC(=O)[C@H](C)NC(=O)[C@H](CCCNC(=N)N)NC(=O)[C@H](Cc1ccc(OP(=O)(O)O)cc1)NC(=O)[C@H](Cc1ccccc1)NC(=O)[C@H](CC(N)=O)NC(=O)[C@H](CO)NC(=O)[C@H](CC(=O)O)NC(=O)[C@@H](NC(=O)[C@@H]1CCCN1C(=O)[C@H](CO)NC(=O)[C@@H]1CCCN1C(=O)[C@H](CC(C)C)NC(=O)c1ccc2c(c1)C(=O)OC21c2ccc(N(C)C)cc2Oc2cc(N(C)C)ccc21)[C@@H](C)O)C(=O)N[C@@H](CC(=O)O)C(=O)N[C@@H](CCC(=O)O)C(=O)N[C@@H](CCC(=O)O)C(=O)N[C@@H](CC(=O)O)C(=O)O` the Kd was 191 nM (Tyrosine-protein kinase Blk, SH2 domain (BLK, Homo sapiens, UniProt P51451); binding).
With `CC[C@H](C)[C@H](NC(=O)[C@@H]1CCCN1C(=O)[C@H](CCCCN)NC(=O)[C@@H]1CCCN1C(=O)[C@H](CCSC)NC(=O)[C@H](CCC(N)=O)NC(=O)[C@@H](N)Cc1ccc(O)cc1)C(=O)N[C@H](C(=O)N[C@@H](Cc1ccccc1)C(=O)O)[C@@H](C)O` the IC50 was 15300 nM (HLA class I histocompatibility antigen, A alpha chain allele A*02:01; binding).
The EC50 of `COc1cc(C(=O)N2CC[C@@H](O)[C@@H](N)C2)cc2nc(-c3cc4ccccc4n3CC3CC3)n(C)c12` is reported as > 31600 nM (ADORA2A (Homo sapiens, UniProt P29274); agonist, TR-FRET).
For `CSCC[C@H](NC(=O)[C@H](CCC(N)=O)NC(=O)[C@H](Cc1c[nH]cn1)NC(=O)[C@@H]1CCCN1C(=O)[C@H](Cc1ccccc1)NC(=O)[C@H](CCC(N)=O)NC(=O)[C@@H](N)Cc1ccccc1)C(=O)N[C@H](C(=O)N[C@@H](Cc1ccccc1)C(=O)O)[C@@H](C)O`, the IC50 was 1530 nM (HLA class I histocompatibility antigen, A alpha chain allele A*02:01; binding).
`CC(C)S[C@@H]1O[C@H](CO)[C@H](O)[C@H](O)[C@H]1O` has a Kd of 6000 ± 300 nM (lacI (Escherichia coli, UniProt P03023, D149C); binding, fluorescence titration; no operator DNA).
With `COC(=O)C(C)c1cccc(NS(=O)(=O)c2cc(Cl)cc(Cl)c2O)c1` (stereo not shown) the Ki was 21000 nM (ampC).
The IC50 of `CC[C@H](C)[C@H](NC(=O)[C@@H]1CCCN1C(=O)[C@H](CCCCN)NC(=O)[C@H](Cc1ccc(O)cc1)NC(=O)[C@H](CCSC)NC(=O)[C@@H](N)CCCNC(=N)N)C(=O)N[C@H](C(=O)N[C@@H](Cc1c[nH]cn1)C(=O)N[C@@H](Cc1ccccc1)C(=O)O)[C@@H](C)O` is reported as 713 nM (HLA class I histocompatibility antigen, A alpha chain allele A*24:02; binding).
`COC(=O)C(Cc1cccc(F)c1)NS(=O)(=O)c1cccc(Cl)c1O` (stereo not shown) gave a Ki of 212000 nM (ampC).
The IC50 of `C[C@H]1CN(c2n[nH]c3nc(N[C@H]4CC[C@H](NS(=O)(=O)CCC(F)(F)F)CC4)ncc23)CCO1` is reported as ≥ 20000 nM (NEK1 (Homo sapiens, UniProt Q96PY6); biochemical).

For quick reference, copied from above:
The EC50 of `COc1cc(C(=O)N2CC[C@@H](O)[C@@H](N)C2)cc2nc(-c3cc4ccccc4n3CC3CC3)n(C)c12` is reported as > 31600 nM (ADORA2A (Homo sapiens, UniProt P29274); agonist, TR-FRET).
`CC[C@H](C)[C@H](NC(=O)[C@@H](N)CCSC)C(=O)N[C@@H](Cc1ccccc1)C(=O)N[C@@H](CC(=O)O)C(=O)N[C@@H](CCCCN)C(=O)N1CCC[C@H]1C(=O)N[C@H](C(=O)N[C@@H](Cc1ccc(O)cc1)C(=O)N[C@@H](Cc1ccccc1)C(=O)O)C(C)C` gave an IC50 of 398 nM (HLA class I histocompatibility antigen, A alpha chain allele A*02:01; binding).
`CC(C)S[C@@H]1O[C@H](CO)[C@H](O)[C@H](O)[C@H]1O` has a Kd of 6000 ± 300 nM (lacI (Escherichia coli, UniProt P03023, D149C); binding, fluorescence titration; no operator DNA).
